Measured values of several laboratories.
Compare with care: the assays were run in different laboratories. ± gives the spread as reported.
AGTR1: Type-1 angiotensin II receptor (AGTR1, Homo sapiens, UniProt P30556)
GLP1R: Glucagon-like peptide 1 receptor (GLP1R, Homo sapiens, UniProt P43220)
NMUR2: Neuromedin-U receptor 2 (NMUR2, Homo sapiens, UniProt Q9GZQ4)
GIPR: Gastric inhibitory polypeptide receptor (GIPR, Homo sapiens, UniProt P48546)
Napepld: N-acyl-phosphatidylethanolamine-hydrolyzing phospholipase D (Napepld, Mus musculus, UniProt Q8BH82)

The Emax of `CCCn1ccc2c(N3CCN(CCCCOc4ccc5c(c4)NC(=O)CC5)CC3)cccc21` is reported as 32% (D(2) dopamine receptor (DRD2, Homo sapiens, UniProt P14416); β-arrestin recruitment, agonist).
With `CCCCCSC[C@H](NC(=O)[C@H](Cc1ccc(O)cc1)NC(=O)[C@@H](NC(=O)[C@H](CCCNC(=N)N)NC(=O)CNC)C(C)C)C(=O)N[C@@H](Cc1c[nH]cn1)C(=O)N1CCC[C@H]1C(=O)N[C@@H](CC(C)C)C(=O)O` the Emax was 80% (AGTR1; β-arrestin recruitment, agonist; CHO).
`COc1ccc(-c2cc(C(F)(F)F)nc(S(=O)(=O)CCCC(=O)Nc3ccccc3F)n2)cc1OC` has an Emax of 61% (GLP1R; cAMP, agonist).
`CC(C)C[C@H](NC(=O)[C@H](Cc1ccccc1)NC(=O)CCCCCNC(=O)[C@@H](N)CS)C(=O)N[C@@H](Cc1ccccc1)C(=O)N[C@@H](CCCNC(=N)N)C(=O)N1Cc2ccccc2C[C@H]1C(=O)N[C@@H](CCCNC(=N)N)C(=O)N[C@@H](CC(N)=O)C(=O)NCCCCCC(=O)N[C@@H](CS)C(N)=O` has an Emax of 97.8 ± 11.8% (NMUR2; calcium signalling, agonist; HEK293 expressing receptor; 10 µM; baseline: human NmU).
For `CC[C@H](C)[C@H](NC(=O)[C@H](CO)NC(=O)[C@H](Cc1ccc(O)cc1)NC(=O)[C@H](CC(=O)O)NC(=O)[C@H](CO)NC(=O)[C@@H](NC(=O)[C@H](Cc1ccccc1)NC(=O)[C@@H](NC(=O)CNC(=O)[C@H](CCC(=O)O)NC(=O)[C@H](C)NC(=O)[C@@H](N)Cc1ccc(O)cc1)[C@@H](C)O)[C@@H](C)CC)C(=O)N[C@@H](C)C(=O)N[C@@H](CCSC)C(=O)N[C@@H](CC(=O)O)C(=O)N[C@@H](CCCCN)C(=O)N[C@H](C(=O)N[C@@H](CCCNC(=N)N)C(=O)N[C@@H](CCC(N)=O)C(=O)N[C@@H](CCC(N)=O)C(=O)N[C@@H](CC(=O)O)C(=O)N[C@@H](Cc1ccccc1)C(=O)N[C@H](C(=O)N[C@@H](CC(N)=O)C(=O)N[C@@H](Cc1c[nH]c2ccccc12)C(=O)N[C@@H](CC(C)C)C(=O)N[C@@H](CC(C)C)C(=O)N[C@@H](C)C(=O)N[C@@H](CCC(N)=O)C(=O)N[C@@H](CCCNC(=N)N)C(=O)NCC(=O)N[C@@H](CCCCN)C(=O)N[C@@H](CCCCN)C(=O)N[C@@H](CO)C(=O)N[C@@H](CC(=O)O)C(=O)N[C@@H](Cc1c[nH]c2ccccc12)C(=O)N[C@@H](CCCCN)C(=O)N[C@@H](Cc1c[nH]cn1)C(=O)N[C@@H](CC(N)=O)C(=O)N[C@H](C(=O)N[C@H](C(=O)N[C@@H](CCC(N)=O)C(=O)O)[C@@H](C)O)[C@@H](C)CC)C(C)C)[C@@H](C)CC`, the Emax was 99% (GIPR; cAMP, agonist; COS-7).
For `O=C(CNC(=O)c1ccc(O)c(-c2ccc(Cl)c(Cl)c2)c1)NCCc1ccc(Cl)c(Cl)c1`, the Emax was 100% (Probable G-protein coupled receptor 132 (GPR132, Homo sapiens, UniProt Q9UNW8); β-arrestin recruitment, agonist).
`COc1ccc(CNc2nc(-c3ccc(OC)cc3)cc(C(F)(F)F)n2)cc1` gave an Emax of 31 ± 9.2% (GLP1R; cAMP accumulation, positive allosteric modulator; HEK-293T overexpressing GLP1R; together with: EC20 GLP-1).
`CCCCCCCCCCCCCCCCN(CCCCCCCCCCCCCCCC)CCCCCC(=O)NC(C)(C)C(=O)N[C@@H](Cc1ccccc1)C(=O)N[C@@H](CC(C)C)C(=O)N[C@@H](Cc1ccccc1)C(=O)N[C@@H](CCCNC(=N)N)C(=O)N1CCC[C@H]1C(=O)N[C@@H](CCCNC(=N)N)C(=O)N[C@@H](CC(N)=O)C(N)=O` has an Emax of 28.4 ± 4.3% (NMUR2; calcium signaling, agonist; HEK293 expressing NMUR2; 30 µM; baseline: human neuromedin U max).
The Emax of `COc1cccc(-c2cc(C(F)(F)F)nc(NCc3ccccc3)n2)c1` is reported as 32 ± 10% (GLP1R; cAMP accumulation, positive allosteric modulator; HEK-293T overexpressing GLP1R; together with: EC20 GLP-1).
With `CCCCSC[C@H](NC(=O)[C@H](Cc1ccc(O)cc1)NC(=O)[C@@H](NC(=O)[C@H](CCCNC(=N)N)NC(=O)CNC)C(C)C)C(=O)N[C@@H](Cc1c[nH]cn1)C(=O)N1CCC[C@H]1C(=O)N[C@@H](CC(C)C)C(=O)O` the Emax was 83% (AGTR1; β-arrestin recruitment, agonist; CHO).
`Cc1ccc(C)c2sc(NC(=O)C3CCN(S(=O)(=O)c4ccc(F)cc4)CC3)nc12` gave an Emax of 2.2 fold (Napepld; enzyme activity, activator; RAW264.7; together with: PED-A1 substrate; baseline: vehicle).
The Emax of `CC[C@H](C)[C@H](NC(=O)[C@@H]1CCCN1C(=O)[C@H](Cc1c[nH]cn1)NC(=O)[C@@H](NC(=O)[C@@H](NC(=O)[C@@H](NC(=O)[C@H](CCCNC(=N)N)NC(=O)CNC)C(C)C)[C@@H](C)CC)[C@@H](C)CC)C(=O)O` is reported as 42% (AGTR1; β-arrestin recruitment, agonist; CHO).
With `COc1ccc(-c2cc(C(F)(F)F)nc(S(=O)(=O)CCCC(=O)Nc3ccc(F)c(Cl)c3)n2)cc1OC` the Emax was 46% (GLP1R; cAMP, agonist).
`Cn1ccc2c(N3CCN(CCCCOc4ccc5c(c4)NC(=O)CC5)CC3)cccc21` gave an Emax of 67% (D(2) dopamine receptor (DRD2, Homo sapiens, UniProt P14416, S193A); Gi/o cAMP inhibition, agonist, GloSensor; baseline: quinpirole).
The Emax of `COc1ccc(F)cc1CC1(NC(=O)c2cc(N3C[C@@H](C)O[C@H](C)C3)ccn2)CC1` is reported as 2.2 fold (Sodium- and chloride-dependent creatine transporter 1 (SLC6A8, Homo sapiens, UniProt P48029, P544L); creatine transport, refers to: P544L; U-2 OS; 24 h; baseline: DMSO).
With `COc1ccccc1-c1cc(C(F)(F)F)nc(S(=O)(=O)CCCC(=O)Nc2ccc(F)cc2F)n1` the Emax was 62 ± 43% (GLP1R; cAMP accumulation, positive allosteric modulator; HEK-293T overexpressing GLP1R; together with: EC20 GLP-1).
The Emax of `CN1CCN(CC(=O)N2N=C3/C(=C/c4ccccc4)CCCC3C2c2ccccc2)CC1` (mixture of isomers) is reported as 190% (Polyunsaturated fatty acid lipoxygenase ALOX15 (ALOX15, Homo sapiens, UniProt P16050); enzyme activity, activator).
With `CCCCCCCCCCCCCCCCSCc1cc2cc(c1)CSC[C@H](N)C(=O)NCCCCCC(=O)N[C@@H](Cc1ccccc1)C(=O)N[C@@H](CC(C)C)C(=O)N[C@@H](Cc1ccccc1)C(=O)N[C@@H](CCCNC(=N)N)C(=O)N1Cc3ccccc3C[C@H]1C(=O)N[C@@H](CCCNC(=N)N)C(=O)N[C@@H](CC(N)=O)C(=O)NCCCCCC(=O)N[C@H](C(N)=O)CSC2` the Emax was 134 ± 22% (Neuromedin-U receptor 1 (NMUR1, Homo sapiens, UniProt Q9HB89); calcium signalling, agonist; HEK293 expressing receptor; 10 µM; baseline: human NmU).
For `COc1ccc(-c2cc(C(F)(F)F)nc(S(=O)(=O)CCCC(=O)Nc3ccc(F)cc3F)n2)cc1OC`, the Emax was 77% (GLP1R; cAMP, agonist).
`CNCC(=O)N[C@@H](CCCNC(=N)N)C(=O)N[C@H](C(=O)N[C@@H](Cc1ccc(O)cc1)C(=O)N[C@@H](CCSC)C(=O)N[C@@H](Cc1c[nH]cn1)C(=O)N1CCC[C@H]1C(=O)N[C@@H](CC(C)C)C(=O)O)C(C)C` gave an Emax of 76% (AGTR1; β-arrestin recruitment, agonist; CHO).
`CC[C@H](C)[C@H](NC(=O)[C@H](CO)NC(=O)[C@H](Cc1ccc(O)cc1)NC(=O)[C@H](CC(=O)O)NC(=O)[C@H](CO)NC(=O)[C@@H](NC(=O)[C@H](Cc1ccccc1)NC(=O)[C@@H](NC(=O)CNC(=O)[C@@H]1CCCN1C(=O)[C@H](C)NC(=O)[C@@H](N)Cc1ccc(O)cc1)[C@@H](C)O)[C@@H](C)CC)C(=O)N[C@@H](C)C(=O)N[C@@H](CCSC)C(=O)N[C@@H](CC(=O)O)C(=O)N[C@@H](CCCCN)C(=O)N[C@H](C(=O)N[C@@H](Cc1c[nH]cn1)C(=O)N[C@@H](CCC(N)=O)C(=O)N[C@@H](CCC(N)=O)C(=O)N[C@@H](CC(=O)O)C(=O)N[C@@H](Cc1ccccc1)C(=O)N[C@H](C(=O)N[C@@H](CC(N)=O)C(=O)N[C@@H](Cc1c[nH]c2ccccc12)C(=O)N[C@@H](CC(C)C)C(=O)N[C@@H](CC(C)C)C(=O)N[C@@H](C)C(=O)N[C@@H](CCC(N)=O)C(=O)N[C@@H](CCCCN)C(=O)NCC(=O)N[C@@H](CCCCN)C(=O)N[C@@H](CCCCN)C(=O)N[C@@H](CC(N)=O)C(=O)N[C@@H](CC(=O)O)C(=O)N[C@@H](Cc1c[nH]c2ccccc12)C(=O)N[C@@H](CCCCN)C(=O)N[C@@H](Cc1c[nH]cn1)C(=O)N[C@@H](CC(N)=O)C(=O)N[C@H](C(=O)N[C@H](C(=O)N[C@@H](CCC(N)=O)C(=O)O)[C@@H](C)O)[C@@H](C)CC)C(C)C)[C@@H](C)CC` has an Emax of 90% (GIPR; cAMP, agonist; COS-7).
`COc1cc(Cl)ccc1NC(=O)CCCS(=O)(=O)c1nc(-c2ccc(OC)c(OC)c2)cc(C(F)(F)F)n1` gave an Emax of 64 ± 30% (GLP1R; cAMP accumulation, positive allosteric modulator; HEK-293T overexpressing GLP1R; together with: EC20 GLP-1).
`COc1ccc(C(=O)c2c(C(=O)NCCCN(C)C)oc3ccc(Cl)cc3c2=O)cc1OC` gave an Emax of ~35% (Growth hormone secretagogue receptor type 1 (GHSR, Homo sapiens, UniProt Q92847, A204E); β-arrestin 2 recruitment, agonist, NanoBiT; HEK293T; no saturation reached).
For `Cc1cc(F)ccc1S(=O)(=O)N1CCC(C(=O)Nc2nc3c(C)cccc3s2)CC1`, the Emax was < 1.6 fold (Napepld; enzyme activity, activator, fluorescence, PED-A1 substrate; baseline: vehicle).
The Emax of `COc1ccc(-c2cc(C(F)(F)F)nc(NCc3ccc(F)cc3)n2)cc1OC` is reported as 53 ± 16% (GLP1R; cAMP accumulation, positive allosteric modulator; HEK-293T overexpressing GLP1R; together with: EC20 GLP-1).
`CCCCCCCCCCCCCCCCSCc1cc2cc(c1)CSC[C@H](N)C(=O)NCCCCCC(=O)N[C@@H](Cc1ccccc1)C(=O)N[C@@H](CC(C)C)C(=O)N[C@@H](Cc1ccccc1)C(=O)N[C@@H](CCCNC(=N)N)C(=O)N1CCC[C@H]1C(=O)N[C@@H](CCCNC(=N)N)C(=O)N[C@@H](CC(N)=O)C(=O)NCCCCCC(=O)N[C@H](C(N)=O)CSC2` gave an Emax of 53.1 ± 0.3% (NMUR2; calcium signalling; HEK293; baseline: human neuromedin U).

A few entries again:
With `CCCCCCCCCCCCCCCCSCc1cc2cc(c1)CSC[C@H](N)C(=O)NCCCCCC(=O)N[C@@H](Cc1ccccc1)C(=O)N[C@@H](CC(C)C)C(=O)N[C@@H](Cc1ccccc1)C(=O)N[C@@H](CCCNC(=N)N)C(=O)N1Cc3ccccc3C[C@H]1C(=O)N[C@@H](CCCNC(=N)N)C(=O)N[C@@H](CC(N)=O)C(=O)NCCCCCC(=O)N[C@H](C(N)=O)CSC2` the Emax was 134 ± 22% (Neuromedin-U receptor 1 (NMUR1, Homo sapiens, UniProt Q9HB89); calcium signalling, agonist; HEK293 expressing receptor; 10 µM; baseline: human NmU).
The Emax of `CN1CCN(CC(=O)N2N=C3/C(=C/c4ccccc4)CCCC3C2c2ccccc2)CC1` (mixture of isomers) is reported as 190% (Polyunsaturated fatty acid lipoxygenase ALOX15 (ALOX15, Homo sapiens, UniProt P16050); enzyme activity, activator).
The Emax of `CC[C@H](C)[C@H](NC(=O)[C@@H]1CCCN1C(=O)[C@H](Cc1c[nH]cn1)NC(=O)[C@@H](NC(=O)[C@@H](NC(=O)[C@@H](NC(=O)[C@H](CCCNC(=N)N)NC(=O)CNC)C(C)C)[C@@H](C)CC)[C@@H](C)CC)C(=O)O` is reported as 42% (AGTR1; β-arrestin recruitment, agonist; CHO).
`CC(C)C[C@H](NC(=O)[C@H](Cc1ccccc1)NC(=O)CCCCCNC(=O)[C@@H](N)CS)C(=O)N[C@@H](Cc1ccccc1)C(=O)N[C@@H](CCCNC(=N)N)C(=O)N1Cc2ccccc2C[C@H]1C(=O)N[C@@H](CCCNC(=N)N)C(=O)N[C@@H](CC(N)=O)C(=O)NCCCCCC(=O)N[C@@H](CS)C(N)=O` has an Emax of 97.8 ± 11.8% (NMUR2; calcium signalling, agonist; HEK293 expressing receptor; 10 µM; baseline: human NmU).
